Published values from different studies.
Numbers after ± are the reported error.
lecA: PA-I galactophilic lectin (lecA, Pseudomonas aeruginosa, UniProt Q05097)
Sequence of UniProt Q05097 (whole entry, looked up): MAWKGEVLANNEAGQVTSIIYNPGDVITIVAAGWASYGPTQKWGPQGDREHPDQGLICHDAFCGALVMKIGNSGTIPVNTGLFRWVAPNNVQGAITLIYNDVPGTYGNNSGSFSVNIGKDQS
Complement C3: Complement C3 (Homo sapiens, UniProt P01024)
Sequence of UniProt P01024 (whole entry, looked up): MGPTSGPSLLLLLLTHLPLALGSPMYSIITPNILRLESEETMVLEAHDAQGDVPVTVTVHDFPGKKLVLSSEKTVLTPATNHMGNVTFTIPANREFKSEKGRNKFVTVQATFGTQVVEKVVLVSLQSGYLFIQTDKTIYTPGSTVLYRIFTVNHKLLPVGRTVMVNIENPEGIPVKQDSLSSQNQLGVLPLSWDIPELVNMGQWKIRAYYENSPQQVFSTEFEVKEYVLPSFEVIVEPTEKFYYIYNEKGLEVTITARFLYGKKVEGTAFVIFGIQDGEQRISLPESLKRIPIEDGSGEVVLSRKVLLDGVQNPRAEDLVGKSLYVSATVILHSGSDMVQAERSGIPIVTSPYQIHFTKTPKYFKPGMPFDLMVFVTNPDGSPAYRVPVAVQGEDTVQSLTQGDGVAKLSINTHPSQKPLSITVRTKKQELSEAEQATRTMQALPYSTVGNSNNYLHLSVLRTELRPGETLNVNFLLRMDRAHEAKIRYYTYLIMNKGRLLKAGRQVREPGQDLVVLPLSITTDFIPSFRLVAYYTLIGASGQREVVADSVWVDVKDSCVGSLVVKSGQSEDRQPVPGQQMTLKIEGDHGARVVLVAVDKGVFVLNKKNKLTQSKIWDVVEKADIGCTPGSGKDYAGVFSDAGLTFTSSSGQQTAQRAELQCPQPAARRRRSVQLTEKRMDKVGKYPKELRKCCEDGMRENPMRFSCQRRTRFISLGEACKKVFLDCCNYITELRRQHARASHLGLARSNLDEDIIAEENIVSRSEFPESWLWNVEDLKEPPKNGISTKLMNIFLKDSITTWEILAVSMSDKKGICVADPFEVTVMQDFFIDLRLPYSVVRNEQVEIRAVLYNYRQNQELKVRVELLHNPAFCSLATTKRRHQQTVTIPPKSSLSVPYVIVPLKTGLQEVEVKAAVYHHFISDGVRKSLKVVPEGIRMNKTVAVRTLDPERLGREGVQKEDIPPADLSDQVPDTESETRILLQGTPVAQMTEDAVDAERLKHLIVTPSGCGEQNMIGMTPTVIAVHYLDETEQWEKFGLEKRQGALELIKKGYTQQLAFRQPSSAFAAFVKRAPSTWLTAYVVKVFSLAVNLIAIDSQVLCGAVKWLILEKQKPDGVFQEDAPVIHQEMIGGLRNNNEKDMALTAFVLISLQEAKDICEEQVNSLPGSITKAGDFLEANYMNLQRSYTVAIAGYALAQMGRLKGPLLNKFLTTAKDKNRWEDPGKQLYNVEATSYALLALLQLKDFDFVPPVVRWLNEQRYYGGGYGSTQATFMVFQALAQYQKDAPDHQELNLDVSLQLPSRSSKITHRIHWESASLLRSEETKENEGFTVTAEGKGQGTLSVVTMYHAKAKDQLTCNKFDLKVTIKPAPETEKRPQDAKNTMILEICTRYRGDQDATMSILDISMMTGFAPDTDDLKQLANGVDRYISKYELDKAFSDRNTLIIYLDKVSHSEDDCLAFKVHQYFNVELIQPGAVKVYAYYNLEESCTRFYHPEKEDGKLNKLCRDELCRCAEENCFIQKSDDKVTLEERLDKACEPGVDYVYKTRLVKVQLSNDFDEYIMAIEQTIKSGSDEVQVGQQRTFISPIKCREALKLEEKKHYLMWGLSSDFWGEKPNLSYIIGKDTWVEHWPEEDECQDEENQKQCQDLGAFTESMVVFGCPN
Sequence of UniProt P05067 (whole entry, looked up): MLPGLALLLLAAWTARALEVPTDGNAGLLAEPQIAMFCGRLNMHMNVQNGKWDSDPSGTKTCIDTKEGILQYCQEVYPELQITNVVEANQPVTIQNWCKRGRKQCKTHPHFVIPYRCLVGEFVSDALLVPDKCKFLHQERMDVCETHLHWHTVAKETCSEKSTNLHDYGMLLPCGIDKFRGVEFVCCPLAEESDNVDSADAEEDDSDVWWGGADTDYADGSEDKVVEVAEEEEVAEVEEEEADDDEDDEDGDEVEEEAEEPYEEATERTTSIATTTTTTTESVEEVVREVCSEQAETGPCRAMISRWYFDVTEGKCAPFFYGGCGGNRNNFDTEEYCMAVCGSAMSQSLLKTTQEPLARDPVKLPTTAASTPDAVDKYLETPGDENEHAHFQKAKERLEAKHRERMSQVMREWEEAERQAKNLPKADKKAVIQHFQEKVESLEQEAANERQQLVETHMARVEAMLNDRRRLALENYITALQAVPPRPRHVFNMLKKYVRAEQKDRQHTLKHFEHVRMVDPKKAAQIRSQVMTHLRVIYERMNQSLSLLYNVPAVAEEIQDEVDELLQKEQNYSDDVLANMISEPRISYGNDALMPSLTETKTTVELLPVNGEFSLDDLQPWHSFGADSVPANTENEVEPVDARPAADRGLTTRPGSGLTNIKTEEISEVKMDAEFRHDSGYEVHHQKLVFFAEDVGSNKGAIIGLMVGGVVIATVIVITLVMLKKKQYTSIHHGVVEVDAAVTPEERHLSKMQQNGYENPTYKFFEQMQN
Sequence of UniProt Q13148 (whole entry, looked up): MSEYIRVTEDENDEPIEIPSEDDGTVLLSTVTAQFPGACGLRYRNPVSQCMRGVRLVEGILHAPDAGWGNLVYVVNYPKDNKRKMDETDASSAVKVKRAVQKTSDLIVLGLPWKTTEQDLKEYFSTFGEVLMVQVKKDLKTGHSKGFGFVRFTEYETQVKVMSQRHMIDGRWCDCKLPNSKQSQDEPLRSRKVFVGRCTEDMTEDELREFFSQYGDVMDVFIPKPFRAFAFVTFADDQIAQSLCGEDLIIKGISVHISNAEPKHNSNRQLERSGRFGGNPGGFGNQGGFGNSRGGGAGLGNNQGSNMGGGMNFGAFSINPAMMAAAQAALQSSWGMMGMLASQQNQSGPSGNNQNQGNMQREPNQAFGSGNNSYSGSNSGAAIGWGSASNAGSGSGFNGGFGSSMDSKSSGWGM
Sequence of UniProt P50395 (whole entry, looked up): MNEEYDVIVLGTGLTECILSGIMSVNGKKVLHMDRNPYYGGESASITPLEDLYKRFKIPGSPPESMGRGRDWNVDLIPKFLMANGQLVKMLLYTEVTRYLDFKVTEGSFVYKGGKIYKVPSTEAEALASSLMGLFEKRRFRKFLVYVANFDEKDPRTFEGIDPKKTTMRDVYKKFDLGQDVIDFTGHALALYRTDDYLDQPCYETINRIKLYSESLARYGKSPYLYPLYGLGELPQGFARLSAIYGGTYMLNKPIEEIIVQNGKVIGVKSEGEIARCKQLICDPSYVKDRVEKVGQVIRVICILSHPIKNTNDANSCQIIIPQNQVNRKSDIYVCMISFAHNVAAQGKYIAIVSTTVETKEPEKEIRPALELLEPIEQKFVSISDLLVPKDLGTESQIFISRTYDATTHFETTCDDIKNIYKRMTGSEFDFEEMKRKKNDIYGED
Sequence of UniProt P69687 (whole entry, looked up): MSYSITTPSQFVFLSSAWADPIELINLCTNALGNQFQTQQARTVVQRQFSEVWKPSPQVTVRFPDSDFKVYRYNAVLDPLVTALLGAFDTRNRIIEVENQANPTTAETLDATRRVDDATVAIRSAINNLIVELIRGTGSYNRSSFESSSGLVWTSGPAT
Sequence of UniProt Q68D91 (whole entry, looked up): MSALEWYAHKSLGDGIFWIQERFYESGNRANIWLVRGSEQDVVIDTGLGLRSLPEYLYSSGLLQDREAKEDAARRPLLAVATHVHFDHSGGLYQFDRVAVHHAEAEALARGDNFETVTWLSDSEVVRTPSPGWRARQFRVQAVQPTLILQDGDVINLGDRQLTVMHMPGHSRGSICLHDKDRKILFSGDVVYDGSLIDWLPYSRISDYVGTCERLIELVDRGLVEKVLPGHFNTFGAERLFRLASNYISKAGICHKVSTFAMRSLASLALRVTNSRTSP
Sequence of UniProt Q9NXA8 (whole entry, unmodified, looked up): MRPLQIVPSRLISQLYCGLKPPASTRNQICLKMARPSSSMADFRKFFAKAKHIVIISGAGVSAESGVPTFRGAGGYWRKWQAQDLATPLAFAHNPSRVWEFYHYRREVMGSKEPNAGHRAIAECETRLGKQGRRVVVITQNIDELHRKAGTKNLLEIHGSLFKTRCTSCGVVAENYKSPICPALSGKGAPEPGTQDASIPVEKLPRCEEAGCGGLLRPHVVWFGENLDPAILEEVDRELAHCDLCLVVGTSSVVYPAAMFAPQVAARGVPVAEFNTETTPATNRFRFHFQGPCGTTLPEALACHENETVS
Sequence of UniProt Q9Y294 (whole entry, looked up): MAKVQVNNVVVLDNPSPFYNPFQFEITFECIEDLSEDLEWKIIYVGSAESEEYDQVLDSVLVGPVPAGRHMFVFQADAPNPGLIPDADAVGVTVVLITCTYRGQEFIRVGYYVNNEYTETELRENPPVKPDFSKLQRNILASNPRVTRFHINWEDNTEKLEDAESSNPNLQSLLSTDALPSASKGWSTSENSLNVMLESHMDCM
Sequence of UniProt Q9ULV8 (whole entry, looked up): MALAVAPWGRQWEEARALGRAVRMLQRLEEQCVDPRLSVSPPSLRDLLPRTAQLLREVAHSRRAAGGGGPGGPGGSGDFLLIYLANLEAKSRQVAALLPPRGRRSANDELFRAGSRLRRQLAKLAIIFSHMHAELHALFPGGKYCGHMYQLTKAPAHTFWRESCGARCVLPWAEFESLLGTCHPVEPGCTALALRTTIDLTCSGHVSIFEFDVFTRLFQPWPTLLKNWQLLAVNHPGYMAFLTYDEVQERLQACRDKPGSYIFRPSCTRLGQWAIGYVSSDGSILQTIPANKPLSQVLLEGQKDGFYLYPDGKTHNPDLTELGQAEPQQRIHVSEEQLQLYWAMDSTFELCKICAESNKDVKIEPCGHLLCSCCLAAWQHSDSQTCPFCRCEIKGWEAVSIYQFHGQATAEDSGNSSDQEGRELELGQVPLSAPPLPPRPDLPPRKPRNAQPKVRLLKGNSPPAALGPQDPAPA

Compound = CC[C@H](C)[C@H](NC(=O)[C@H](CC(C)C)NC(=O)[C@@H](NC(=O)[C@@H](N)CC(=O)O)[C@@H](C)CC)C(=O)N[C@H](C(=O)N[C@H](C(=O)NCC(=O)NCC(=O)O)C(C)C)[C@@H](C)CC; target = Rgg3 Streptococcus pyogenes; test = competition fluorescence polarization; setting = together with: 10 nM FITC-labelled compound; Kd = 0.22 µM
Compound = CO[C@H](C(=O)[C@@H](O)[C@@H](C)O)[C@@H]1Cc2cc3cc(O[C@H]4C[C@@H](O[C@H]5C[C@@H](O)[C@H](O)[C@@H](C)O5)[C@H](O)[C@@H](C)O4)c(C)c(O)c3c(O)c2C(=O)[C@H]1O[C@H]1C[C@@H](O[C@H]2C[C@@H](O[C@H]3C[C@](C)(O)[C@H](O)[C@@H](C)O3)[C@@H](O)[C@@H](C)O2)[C@H](O)[C@@H](C)O1; target = human histone H2B; test = fluorescence quenching titration; setting = pH 7.0, 25 °C, no Mg2+; Kd = 1.7 ± 0.05 µM
Compound = C[C@H](N)C(=O)N[C@@H](CCCNC(=N)N)C(=O)N[C@H](C(=O)N[C@@H](CCCC[N+](C)(C)C)C(=O)N[C@@H](CCC(N)=O)C(=O)N[C@H](C(=O)N[C@@H](C)C(=O)N[C@@H](CCCNC(=N)N)C(=O)N[C@@H](CCCCN)C(=O)N[C@@H](CO)C(=O)N[C@H](C(=O)NCC(=O)NCC(=O)N[C@@H](CCCCN)C(=O)N[C@@H](C)C(=O)O)[C@@H](C)O)[C@@H](C)O)[C@@H](C)O; target = Histone-lysine N-methyltransferase 2A, PHD3-bromodomain cassette (KMT2A, Homo sapiens, UniProt Q03164, del1666-1702); test = binding, isothermal titration calorimetry; setting = pH 7.5, 25 °C, coexpressed protein complex, together with: H3K4me peptide; Kd = 4.3 µM
Compound = O=C(COCCCCc1ccccc1)N[C@@H](Cc1cn(CCNC(=O)c2ccc(S[C@@H]3O[C@H](CO)[C@H](O)[C@H](O)[C@H]3O)cc2)nn1)C(=O)NCCO; target = lecA; test = binding, SPR; Kd = 6.7 µM
Compound = CC(C)(C)NCCCNC(=O)c1cccc(C(F)(F)F)c1; target = TP53-binding protein 1, tandem tudor domain (Homo sapiens, UniProt Q12888); test = isothermal titration calorimetry; Kd = 10 ± 1 µM
Compound = Cn1ccc(-c2cc(Cl)c(Cl)c3[nH]c4c(c23)CN(C(=O)CO)CC4)n1; target = CGAS (Homo sapiens, UniProt Q8N884); test = binding, surface plasmon resonance; setting = together with: dsDNA and ATP; Kd = 0.141 ± 0.08 µM
Compound = CC[C@H](C)[C@H](NC(C)=O)C(=O)N[C@H]1CSSC[C@@H](C(=O)N[C@H](C(N)=O)[C@@H](C)O)NC(=O)[C@H](CCCNC(=N)N)NC(=O)[C@H](Cc2c[nH]cn2)NC(=O)[C@H](C)NC(=O)CNC(=O)[C@H](Cc2c[nH]c3ccccc23)NC(=O)[C@H](CC(=O)O)NC(=O)[C@H](CCC(N)=O)NC(=O)[C@H](Cc2ccc(OC)cc2)NC(=O)[C@H](C(C)C)NC1=O; target = Complement C3; test = binding, ITC; setting = pH 7.4; Kd = 0.115 µM
Compound = CC[C@H](C)[C@H](NC(C)=O)C(=O)N[C@H]1CSSC[C@@H](C(=O)N[C@@H](Cc2c[nH]c3ccccc23)C(N)=O)NC(=O)[C@H](CCCNC(=N)N)NC(=O)[C@H](Cc2c[nH]cn2)NC(=O)[C@H](C)NC(=O)CNC(=O)[C@H](Cc2c[nH]c3ccccc23)NC(=O)[C@H](CC(=O)O)NC(=O)[C@H](CCC(N)=O)NC(=O)[C@H](Cc2c[nH]c3ccccc23)NC(=O)[C@H](C(C)C)NC1=O; target = Complement C3; test = surface plasmon resonance; setting = 25 °C, two-state reaction model; Kd = 0.74 µM
Compound = C=CCCCO[C@@H]1C[C@@H](C(=O)N[C@@H](CCCNC(=N)N)C(=O)N[C@@H](CCCNC(=N)N)C(=O)N[C@@H](CCCNC(=N)N)C(N)=O)N(C(=O)[C@@H]2CCCN2C(=O)[C@@H](NC(=O)[C@@H]2C[C@H](OCC=C)CN2C(=O)[C@@H]2CCCN2C(=O)[C@@H]2CCCN2C(=O)[C@@H](NC(C)=O)C(C)C)C(C)C)C1; target = Growth factor receptor-bound protein 2, N-terminal SH3 domain (GRB2, Homo sapiens, UniProt P62993); test = binding, tryptophan fluorescence; system = PBS; setting = 21 °C; Kd = 14.5 ± 0.75 µM
Compound = CC1=CC(C)(C)Nc2c(C(=O)O)cccc21; target = E3 ubiquitin-protein ligase CBL-C (Homo sapiens, UniProt Q9ULV8); test = binding, NMR; Kd = 620 µM
Compound = CC[C@H](C)[C@H](NC(=O)[C@H](CCCNC(=N)N)NC(=O)NC[C@H](CCC(N)=O)NC(=O)NC[C@H](CC(C)C)NC(=O)NC[C@H](CCCNC(=N)N)NC(=O)NC[C@H](CCc1ccccc1)NC(=O)[C@H](CCCCN)NC(=O)[C@H](CCC(=O)O)NC(C)=O)C(=O)N[C@@H](C)C(N)=O; target = Histone chaperone ASF1A (Homo sapiens, UniProt Q9Y294); test = binding, ITC; setting = pH 7.5; Kd = 4.6 µM
Compound = O=C1c2sc(-c3ccc(N4CCC(CO)CC4)nc3F)nc2CCN1c1cccnc1; target = TAR DNA-binding protein 43, aggregated (TARDBP, Homo sapiens, UniProt Q13148); test = radioligand binding; system = FTLD-TDP type B brain homogenate; Kd = 0.025 ± 0.018 µM
Compound = CCOc1cc(C2CC(=O)NC3=C2C(=O)CC(c2ccc(F)cc2)C3)cc([N+](=O)[O-])c1O (stereo not shown); target = Histone acetyltransferase type B catalytic subunit (Homo sapiens, UniProt O14929); test = binding, SPR; Kd = 12 µM
Compound = Cc1cc(C)cc(COc2cc3c(cc2OCc2cc(C)cc(C)c2)[C@@H]2C[C@](O)(Cc4cn(Cc5ccc(F)cc5)nn4)C[C@H](C)N2CC3)c1 (single isomer, unassigned); target = Rab GDP dissociation inhibitor beta (Homo sapiens, UniProt P50395); test = binding, BLI; Kd = 36 µM
Compound = OC[C@H]1O[C@@H](OCc2cn([C@H]3[C@H](O)[C@@H](O)[C@H](c4cn([C@H]5[C@H](O)[C@@H](O)[C@H](n6cc([C@@H]7O[C@H](Cn8cc(-c9ccccc9)nn8)[C@@H](n8cc(CO[C@@H]9O[C@H](CO)[C@H](O)[C@H](O)[C@H]9O)nn8)[C@H](O)[C@H]7O)nn6)O[C@@H]5CO)nn4)O[C@@H]3Cn3cc(-c4ccccc4)nn3)nn2)[C@H](O)[C@@H](O)[C@H]1O; target = lecA; test = binding, ITC; Kd = 0.057 µM
Compound = C[n+]1cc(NC(=O)c2ccc3ccc4ccc(C(=O)Nc5cc6ccccc6[n+](C)c5)nc4c3n2)cc2ccccc21; target = telomeric G4 DNA hybrid-2; test = binding, fluorescence titration; system = 100 mM KCl buffer; setting = pH 7.2, together with: labelled G4 DNA 2 nM; Kd = 0.0031 ± 0.0002 µM
Compound = CC(C)=CCC[C@](C)(O)[C@H]1CC[C@]2(C)[C@@H]1[C@H](O)C[C@@H]1[C@@]3(C)CC[C@H](O)C(C)(C)[C@@H]3CC[C@]12C; target = YWHAZ (Homo sapiens, UniProt P63104, R56A); test = biolayer interferometry; setting = R56A mutant; Kd = 2350 ± 0.11 µM
Compound = OC[C@H]1O[C@@H](Oc2ccc(-c3cn([C@@H]4O[C@H](CO)[C@@H](n5cc(CCCCc6cn([C@H]7[C@H](O)[C@@H](O)[C@H](n8cc(-c9ccc(O[C@@H]%10O[C@H](CO)[C@H](O)[C@H](O)[C@H]%10O)cc9)nn8)O[C@@H]7CO)nn6)nn5)[C@H](O)[C@H]4O)nn3)cc2)[C@H](O)[C@@H](O)[C@H]1O; target = lecA; test = binding, ITC; setting = pH 7.5; Kd = 0.092 µM
Compound = O=C(CCc1ccc2n1[B-](F)(F)[N+]1=C(c3ccc[nH]3)C=CC1=C2)NCCCn1cc([C@H]2CN(Cc3ccccn3)C(=O)[C@@H]3CCC[C@H]2N3S(=O)(=O)c2cc(Cl)cc(Cl)c2)nn1; target = FKBP5 (Homo sapiens, UniProt Q13451); test = binding, FP; Kd = 0.228 µM
Compound = CN(C)S(=O)(=O)c1ccc(S(=O)(=O)N2CCC(n3c(=O)[nH]c4ccccc43)CC2)cc1; target = mfd (Escherichia coli, UniProt P30958); test = binding, ITC; Kd = 83 µM
Compound = O=C(COCCCc1ccccc1)N[C@@H](Cc1cn(CCNC(=O)c2ccc(S[C@@H]3O[C@H](CO)[C@H](O)[C@H](O)[C@H]3O)cc2)nn1)C(=O)NCCO; target = lecA; test = binding, SPR; Kd = 7.2 µM
Compound = CCOC(=O)C1=CN([C@@H]2O[C@H](CO)[C@@H](O)[C@H]2O)C=CC1; target = SIRT5 (Homo sapiens, UniProt Q9NXA8, A86S); test = binding, MST; Kd = 21.3 µM
Compound = O=C(COc1ccc2ccccc2c1)N[C@@H](Cc1cn(CCNC(=O)c2ccc(S[C@@H]3O[C@H](CO)[C@H](O)[C@H](O)[C@H]3O)cc2)nn1)C(=O)NCCO; target = lecA; test = binding, SPR; Kd = 6.4 µM
Compound = O=C(NO)c1cnc(NC2(c3cccc(F)c3)CCCCC2)nc1; target = MBLAC2 (Homo sapiens, UniProt Q68D91); test = binding, competitor, chemoproteomic pulldown; system = SW-620 MV4-11 lysate; setting = 1 h, 30 °C; Kd = 0.794 µM
Compound = CC(=O)N[C@@H](Cc1c[nH]c2ccccc12)C(=O)N[C@H]1CSSC[C@@H](C(=O)N[C@@H](Cc2c[nH]c3ccccc23)C(N)=O)NC(=O)[C@H](CCCNC(=N)N)NC(=O)[C@H](Cc2c[nH]cn2)NC(=O)[C@H](C)NC(=O)CNC(=O)[C@H](Cc2c[nH]c3ccccc23)NC(=O)[C@H](CC(=O)O)NC(=O)[C@H](CCC(N)=O)NC(=O)[C@H](Cc2c[nH]c3ccccc23)NC(=O)[C@H](C(C)C)NC1=O; target = Complement C3; test = surface plasmon resonance; setting = 25 °C, 1:1 binding model; Kd = 0.38 µM
Compound = COC(=O)/C=C/c1ccc(OCCNS(=O)(=O)c2ccc(NC(C)=O)cc2)c(OC)c1; target = CP (Tobacco mosaic virus, UniProt P69687); test = binding, MST; Kd = 12.6 µM
Compound = O=C(Cc1ccccc1O)N[C@@H](Cc1cn(CCNC(=O)c2ccc(S[C@@H]3O[C@H](CO)[C@H](O)[C@H](O)[C@H]3O)cc2)nn1)C(=O)NCCO; target = lecA; test = binding, ITC; Kd = 8.8 µM
Compound = OC(Cc1cc(-c2ccc(C(O)C(F)(F)F)s2)sc1-c1ccc(-c2sc(-c3ccc(C(O)C(F)(F)F)s3)cc2CC(O)C(F)(F)F)s1)C(F)(F)F (stereo not shown); target = Amyloid-beta precursor protein, Aβ40 aggregates (APP, Homo sapiens, UniProt P05067); test = amyloid-beta aggregate binding, fluorescence; setting = 24 h aggregation; Kd = 3.79 ± 0.34 µM
